Assay results pooled from the literature.
Each line is one published result; not all experiments were run side by side.

CNC(=O)c1ccc(-c2cnc3ncc(Cc4ccc5ncccc5c4)n3n2)cc1F
Cmax (human, healthy subjects, plasma; oral, 200 mg, covariate-adjusted geometric mean): 1650 ng/mL

CCN1CCN(Cc2ccc(Nc3ncc(F)c(-c4cc(F)c5nc6n(c5c4)[C@H](C)CCC6)n3)nc2)CC1
Cmax (human, plasma; 200 mg single dose, mean): 131 ng/mL

CC(C)[C@H](N)C(=O)NCCCS(=O)(=O)O
Cmax (human, plasma; oral, 256.5 mg once daily days 8-14, day 14, fasted, capsule): 6070 ng/mL

C=CCn1c(=O)c2cnc(Nc3ccc(N4CCN(C)CC4)cc3)nc2n1-c1cccc(C(C)(C)O)n1
Cmax (human; oral, 150 mg twice daily, cycle 1 day 17, with: durvalumab 1500 mg IV; geometric mean): 680 nM

COc1ncc(-c2nc3c(n2C(C)C)[C@H](c2ccc(Cl)cc2)N(c2cc(Cl)cn(C)c2=O)C3=O)c(OC)n1
Cmax (LC-MS/MS; human, plasma; oral, 4 mg, cycle 1 day 8, low-dose arm): 24 ng/mL

CO[C@H]1C[C@@H]2CC[C@@H](C)[C@@](O)(O2)C(=O)C(=O)N2CCCC[C@H]2C(=O)O[C@H]([C@H](C)C[C@@H]2CC[C@@H](OC(=O)NCCOCCOCCOCCOCCOCCOCCOCCOCCC(=O)N3CCc4cc(Cn5nc(-c6ccc7oc(N)nc7c6)c6c(N)ncnc65)ccc4C3)[C@H](OC)C2)C[C@@H](O)[C@H](C)/C=C(\C)[C@@H](O)[C@@H](OC)C(=O)[C@H](C)C[C@H](C)/C=C/C=C/C=C/1C
Cmax (human, plasma; intravenous, 3 mg, cycle 1 day 1, arithmetic mean): 56.8 ng/mL

O=C(COc1ccc(Cl)cc1)NC12CC(c3nnc([C@H]4C[C@@H](OC(F)(F)F)C4)o3)(C1)C2
Cmax (healthy human volunteers fasted, plasma; oral, 15 mg single dose, arithmetic mean): 175 nM

C[C@@H]1CCO[C@H]2Cn3cc(C(=O)NCc4ccc(F)cc4F)c(=O)c(O)c3C(=O)N12
Cmax (human, age ≥1 months, body weight 3 to <6 kg, plasma; oral, 10 mg, dispersible tablet, steady state): 5950 ng/mL

CN1C(=O)[C@@H](NC(=O)c2nnc(Cc3ccccc3)[nH]2)COc2cccnc21
Cmax (healthy human, fasted, plasma; oral, 400 mg single dose, geometric mean): 4760 ng/mL

CCn1cc(C(=O)N2CCOCC2)c(=O)c2cc(NC3Cc4ccccc4C3)cnc21
Cmax (human, fasted; oral suspension, 2000 mg single dose, arithmetic mean): 852 ng/mL

For quick reference, copied from above:
CCN1CCN(Cc2ccc(Nc3ncc(F)c(-c4cc(F)c5nc6n(c5c4)[C@H](C)CCC6)n3)nc2)CC1
Cmax (human, plasma; 200 mg single dose, mean): 131 ng/mL

CC(C)[C@H](N)C(=O)NCCCS(=O)(=O)O
Cmax (human, plasma; oral, 256.5 mg once daily days 8-14, day 14, fasted, capsule): 6070 ng/mL
